Assay results from different studies.
Parts stem from different laboratories: compare values within a part only. Several values in a cell are separate wells, animals, samples, runs or records. Changes are numbered by the printed parent chain.

Block 1 — target: CCNB3, cyclin fold, Cln2 fusion (human); technique: yeast growth competition, sequencing; sample: yeast; setting: weak parent motif; baseline: not given; direction: higher = stronger binding; measurement: normalised enrichment score
Parent: MASTL docking peptide (human); PMIAKNLMCELDE; partner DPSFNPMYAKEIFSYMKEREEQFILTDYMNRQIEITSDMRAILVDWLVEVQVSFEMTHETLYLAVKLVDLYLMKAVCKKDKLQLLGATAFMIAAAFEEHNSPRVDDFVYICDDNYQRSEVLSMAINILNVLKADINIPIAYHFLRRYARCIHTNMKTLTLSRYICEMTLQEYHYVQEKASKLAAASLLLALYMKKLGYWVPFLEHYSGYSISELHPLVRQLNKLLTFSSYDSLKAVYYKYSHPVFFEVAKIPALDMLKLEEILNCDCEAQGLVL
L11Q: 0.0556
C9P: -0.0966
D12E: 0.114
A4D: -0.0715
L7H: -0.813
M8A: -0.0891
N6G: -0.12
M8F: -0.0166

Block 2 — technique: RNAcompete; form: RNA; sample: in vitro; concentration: 20 nM; setting: 7-mer, probes averaged, single round; baseline: mean of 7-mers; direction: higher = stronger binding; measurement: 7-mer Z-score
Target: PABPC1L2, full length, GST fusion (mouse, UniProt A0ABA7IW68)
Residues (chain): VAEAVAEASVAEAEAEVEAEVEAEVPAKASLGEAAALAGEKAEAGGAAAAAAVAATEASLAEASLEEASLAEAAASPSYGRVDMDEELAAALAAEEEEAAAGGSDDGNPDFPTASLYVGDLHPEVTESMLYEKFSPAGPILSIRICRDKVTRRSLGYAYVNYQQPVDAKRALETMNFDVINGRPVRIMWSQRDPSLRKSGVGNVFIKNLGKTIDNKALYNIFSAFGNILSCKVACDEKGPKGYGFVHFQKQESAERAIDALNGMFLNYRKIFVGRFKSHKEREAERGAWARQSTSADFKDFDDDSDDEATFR
UUUGUUA: -0.358
GCAAUUU: -0.0736
GUUCUGG: -0.284
GAAAAUA: 5.16
UUCUCGA: -0.354
UCCUCUU: -0.411
AGAUUCG: -0.42
UCGACAA: -0.0192

Other studies, line by line
CC(C)n1cnc(-c2ccc(F)cc2)c1-c1ncc(C(=O)Nc2ccc(N3CCN(C)CC3)cc2)[nH]1  patients with eczema (phase 2a trial; idiopathic pulmonary fibrosis patients; 30 mg once daily, grade 4 emergent event): 0%
C#C[C@]1(O)CC[C@H]2[C@@H]3CCc4cc(O)ccc4[C@H]3CC[C@@]21C  nuclei count (mouse MPNST tumor cells; high-content nuclear imaging, refers to: cell number; 10 µM, 12 h, mean of 2 replicates; baseline: plate mean, higher = more cells): 0.621 z-score and 2.17 z-score

Excerpt of the above (block 2):
GUUCUGG: -0.284
